# Measured values pooled from the literature.
# Lines come from different studies, so protocols differ. Values joined by “and” are separate records of one study, mostly repeats; a detail may differ. ± marks the error that the study gave.
Structure (SMILES),test,system,conditions,scale,endpoint,value
c1ccc(-c2n[nH]cc2-c2ccnc3ccccc23)nc1,"kinase binding, competitor, MIB/MS competition, item: YPK1",Candida albicans cell lysate,100 nM,relative to: DMSO,log2 fold change,1.33
CC(c1cc2ccccc2s1)N(O)C(N)=O (stereo not drawn),,human blood,"3 µM, with: A23187",,DHA level,127000 ± 32500 pg/mL
COc1cc(Nc2ncc3c(n2)-c2ccc(Cl)cc2C(c2c(F)cccc2OC)=NC3)ccc1C(=O)O,,"female NOD/scid mice, ALL-8 T-cell ALL xenograft","10.4 mg/kg, 5 days weekly, score scale 0 to 10",direction not given,median response score,8
CC[C@H](C)[C@H](NC(=O)[C@H](Cc1ccccc1)NC(=O)[C@H](CCC(=O)O)NC(=O)[C@H](CCCCN)NC(=O)[C@H](C)NC(=O)[C@H](C)NC(=O)[C@H](CCC(N)=O)NC(=O)CNC(=O)[C@H](CCC(=O)O)NC(=O)[C@H](CC(C)C)NC(=O)[C@H](Cc1ccc(O)cc1)NC(=O)[C@H](CO)NC(=O)[C@H](CO)NC(=O)[C@@H](NC(=O)[C@H](CC(=O)O)NC(=O)[C@H](CO)NC(=O)[C@@H](NC(=O)[C@H](Cc1ccccc1)NC(=O)[C@@H](NC(=O)CNC(=O)[C@H](CCC(=O)O)NC(=O)C(C)(C)NC(=O)[C@@H](N)Cc1cnc[nH]1)[C@@H](C)O)[C@@H](C)O)C(C)C)C(=O)N[C@@H](C)C(=O)N[C@@H](Cc1c[nH]c2ccccc12)C(=O)N[C@@H](CC(C)C)C(=O)N[C@H](C(=O)N[C@@H](CCCNC(=N)N)C(=O)NCC(=O)N[C@@H](CCCNC(=N)N)C(=O)NCC(=O)NCC(=O)NCC(=O)NCC(=O)N[C@@H](CO)C(=O)NCC(=O)NCC(=O)NCC(=O)NCC(=O)N[C@@H](CO)C(=O)NCC(=O)NCC(=O)NCC(=O)NCC(=O)N[C@@H](CO)C(=O)NCC(=O)N[C@@H](CSC(CC(=O)O)C(=O)NCCC(=O)NCC(=O)NCCOCCOCCOCCOCCC(=O)N[C@@H](CCCCNC(=O)CC[C@H](NC(=O)CCCCCCCCCCCCCCCCC(=O)O)C(=O)O)C(=O)NCCOCCOCCOCCOCCC(=O)N[C@@H](CCCCNC(=O)CC[C@H](NC(=O)CCCCCCCCCCCCCCCCC(=O)O)C(=O)O)C(=O)OC)C(=O)O)C(C)C (stereo partly drawn),,db/db mouse,"subcutaneous, 100 nmol/kg single, 0 to 96 h",relative to: baseline,blood glucose AUC(0-96),5640 ± 579%
Cn1cc(Nc2nccc(-c3ccc4c(c3)CN(C3COC3)CC[C@H]4NC(=O)c3cn(C(C)(C)C)nn3)n2)cn1,item: tRNA splicing,"splenic B cells, mice","30 mg/kg, IgD-activated in vivo","relative to: vehicle, direction not given",pathway activation z-score,0
N#CC[C@H](C1CCCC1)n1cc(-c2ncnc3[nH]ccc23)cn1,,"Balb/c mice, oxazolone atopic dermatitis","day 20, unit not given",relative to: vehicle,ear thickness difference,-0.154
CCCCCCCCCCCCCCCC(=O)N[C@@H](CCC(=O)NCCCC[C@H](NC(=O)[C@H](C)NC(=O)[C@H](C)NC(=O)[C@H](CCC(N)=O)NC(=O)CNC(=O)[C@H](CCC(=O)O)NC(=O)[C@H](CC(C)C)NC(=O)[C@H](Cc1ccc(O)cc1)NC(=O)[C@H](CO)NC(=O)[C@H](CO)NC(=O)[C@@H](NC(=O)[C@H](CC(=O)O)NC(=O)[C@H](CO)NC(=O)[C@@H](NC(=O)[C@H](Cc1ccccc1)NC(=O)[C@@H](NC(=O)CNC(=O)[C@H](CCC(=O)O)NC(=O)[C@H](C)NC(=O)[C@@H](N)Cc1c[nH]cn1)[C@@H](C)O)[C@@H](C)O)C(C)C)C(=O)N[C@@H](CCC(=O)O)C(=O)N[C@@H](Cc1ccccc1)C(=O)N[C@H](C(=O)N[C@@H](C)C(=O)N[C@@H](Cc1c[nH]c2ccccc12)C(=O)N[C@@H](CC(C)C)C(=O)N[C@H](C(=O)N[C@@H](CCCNC(=N)N)C(=O)NCC(=O)N[C@@H](CCCNC(=N)N)C(=O)NCC(=O)O)C(C)C)[C@@H](C)CC)C(=O)O,spout contacts,"Sprague-Dawley rat, saline self-administering","subcutaneous, 0.3 mg/kg, hour 1, dosed six hours before test, extinction test 1",,cue-induced heroin seeking,no effect
CCOc1cc([C@@H](CS(C)(=O)=O)N2C(=O)c3cccc(NC(C)=O)c3C2=O)ccc1OC,,"Balb/c mice, oxazolone atopic dermatitis","day 20, unit not given",relative to: vehicle,ear thickness difference,-0.152
C[C@@H](NC(=O)N1C(=O)[C@H](Cc2ccnc(N)c2)[C@H]1C(=O)O)C1CCCCC1,,"healthy Chinese adult volunteers, plasma","continuous intravenous infusion, 0.3 to 2.25 mg/kg/h, 5 days",,prothrombin time change with dose,no effect
N#Cc1ccc(Oc2ccc3c(c2)COB3O)cc1,,"Balb/c mice, oxazolone atopic dermatitis","day 20, unit not given",relative to: vehicle,ear thickness difference,-0.25
NC(=O)c1cnc2[nH]ccc2c1N[C@@H]1[C@@H]2CC3C[C@H]1C[C@@](O)(C3)C2,"flow cytometry, item: CD8+ memory T cells","Japanese healthy subjects, peripheral blood","oral, 100 mg twice daily, day 7",,change from baseline,0.53%
N#Cc1ccc2c(-c3ccncc3)c(-c3ccc(F)cc3)nn2c1,"kinase binding, competitor, MIB/MS competition, item: KIN3",Candida albicans cell lysate,10 µM,relative to: DMSO,log2 fold change,0.446
OC(CCN1CCCCC1)(c1ccccc1)C1CC2C=CC1C2 (stereo not drawn),resting-state EEG,healthy elderly humans,"oral, 2 mg, eyes closed, LS mean",relative to: baseline,change in EEG Beta3-power Pz-O2,7.3%
C[C@H]1C[C@H]2CSC(N)=N[C@@]2(c2nc(NC(=O)c3ccc(OC(F)F)cn3)cs2)CO1,item: Aβ1-40,"healthy adults, plasma","40 mg single dose, 48 h post-dose",relative to: placebo,percent change from baseline,-57.4%
Cc1n[nH]c2ccc(-c3cc(OC[C@@H](N)Cc4ccccc4)cnc3-c3ccoc3)cc12,"kinase binding, competitor, MIB/MS competition, item: KSP1",Candida albicans cell lysate,10 µM,relative to: DMSO,log2 fold change,-0.384
CC(=O)Oc1cc2c(s1)CCN(C(C(=O)C1CC1)c1ccccc1F)C2 (stereo not drawn),"platelet aggregation, light transmittance aggregometry","human, platelet-rich plasma","15 min, IPA above 80 %, with: TRAP 5 µM",relative to: patients,patients with IPA above threshold,0%
CC(C)[C@H](C(=O)Nc1ccc(C(=O)NO)cc1)c1ccccc1,volumetric MRI,"human, left posterior fossa tumour","dose not given, day 373",relative to: baseline,tumour volume change,3.12%
CC(C)C[C@@H](C=O)NC(=O)[C@H](CC(C)C)NC(=O)[C@H](CC(C)C)NC(=O)OCc1ccccc1,item: Ub(G76V)-GFP,,0.156 µM,,degradation rate constant,0.0197 min⁻¹
COc1cc(F)c([C@@H]2CNC(=O)[C@H]2NC(=O)Nc2ccccc2)c(F)c1,terminal haemodynamics,"rat, permanent coronary occlusion MI","1 mg/kg, 1008 h, 6 weeks post-MI",,LV dP/dtmin,-5450 ± 1050 mmHg/s
NC/C(=C\F)COc1cccc(Cn2c(=S)[nH]c(=O)c3[nH]cnc32)c1,,"Mus musculus, carrageenan air pouch exudate","30 mg/kg, 12 h, λ-carrageenan-induced oedema",,exudate volume,2.9 mL and 3 mL and 3.2 mL and 2 mL
O=C(COc1ccc(Cl)cc1)NC12CC(c3nnc([C@H]4C[C@@H](OC(F)(F)F)C4)o3)(C1)C2,,"healthy human, PBMC","145 mg once daily, day 14, 4 h post-dose, median, with: sodium arsenite ex vivo",relative to: baseline,CHAC1 mRNA change,-95.7%
O=C(OC(C(F)(F)F)C(F)(F)F)N1CCN(Cc2cccc(Oc3ccccc3)c2)CC1,PET,"rhesus monkey, striatum","intravenous, 0.1 mg/kg, pretreatment blocking, with: [18F]T-401",,tracer distribution volume,6.41 mL/cm3
CC(C)NCC(O)c1ccc(O)c(O)c1 (stereo not drawn),,"ventricular cardiomyocytes, C57BL/6 mouse","dose not given, 0.344 s",,sarcomere length,1.72 µm
CCCCC1(CCCC)CN(c2ccccc2)c2cc(SC)c(OCC(=O)N[C@@H](C(=O)NCC(=O)O)c3ccccc3)cc2S(=O)(=O)C1,item: 7α-hydroxy-4-cholesten-3-one,"human, plasma","20 mg once daily, day 2",,plasma C4,45.7 ng/mL
C=CCn1c(=O)c2cnc(Nc3ccc(N4CCN(C)CC4)cc3)nc2n1-c1ccc2c(n1)[C@@](O)(CC)CC2,,"LS-411N xenograft, BALB/c nude mice","oral, 80 mg/kg once daily x 19, day 18",relative to: vehicle,tumour growth inhibition,60%
Cc1oncc1C(=O)Nc1ccc(C(F)(F)F)cc1,item: dihydroorotate,"female CD-1 mice, blood","oral, 30 mg/kg daily, 24 h after dose 10",,DHO concentration,48.2 ± 13.4 µM
CC[C@@H]1[C@H](F)C(=O)N[C@@H]1COc1nccc2cc(C(N)=O)c(OC)cc12,"ATP-site probe binding, ActivX profiling, item: MARK1, MARK2",THP-1 cell lysate,"0.04 mM, Lys1 site",,inhibition,8.3%
CC1(C)CCC(CN2CCN(c3ccc(C(=O)NS(=O)(=O)c4ccc(NCC5CCOCC5)c([N+](=O)[O-])c4)c(Oc4cnc5[nH]ccc5c4)c3)CC2)=C(c2ccc(Cl)cc2)C1,"cell killing, flow cytometry PI exclusion","canine blood CD21+ B cells, dog 30",24 h,,EC50,176 nM
C[C@H](Oc1ccc(Br)cc1-c1ccon1)C(=O)O,first response peak,"human, tibialis anterior muscle","200 mg, 15 Hz, single ascending dose",,difference from placebo,4.95%
C[C@H]1O[C@@H](O[C@H]2CC[C@@]3(C)[C@@H](CC[C@]4(C)[C@@H]3C=C[C@]35OC[C@@]6(CCC(C)(C)C[C@H]63)[C@@H](O)C[C@]54C)[C@]2(C)CO)[C@H](O)[C@@H](O[C@@H]2O[C@H](CO)[C@@H](O)[C@H](O)[C@H]2O)[C@H]1O,,"Mus musculus, chronic-plus-binge ethanol-fed, liver","oral, 15 mg/kg/day, 168 h, dosed for 7 days",,hepatic triglycerides,0.0888 mmol/g protein and 0.0721 mmol/g protein and 0.0825 mmol/g protein and 0.0831 mmol/g protein and 0.0953 mmol/g protein and 0.0907 mmol/g protein
O=C(O)CNC(=O)Cc1ccccc1,,"ventricular cardiomyocytes, C57BL/6 mouse","dose not given, 0.176 s",,sarcomere length,1.63 µm
C[C@@H](O)CCOC(=O)C[C@@H](C)O,item: Ser,"human, plasma","60 min, log2-transformed values",,metabolite level,6.55 ± 0.27 µmol/L
CC(C)C[C@H](NC(=O)[C@@H](Cc1c[nH]c2ccccc12)NC(=O)[C@H](Cc1ccc(O)cc1)NC(=O)[C@H](CO)NC(=O)[C@H](Cc1c[nH]c2ccccc12)NC(=O)[C@H](Cc1c[nH]cn1)NC(=O)[C@@H]1CCC(=O)N1)C(=O)N[C@@H](CCCNC(=N)N)C(=O)N1CCC[C@H]1C(=O)NCC(N)=O,,"Chinese girls, central precocious puberty","intramuscular, 22.5 mg day 1, month 6, month 6, Tanner stage III",,girls at breast stage,37%
COc1ccc(-c2cncc(N[C@@H](C)c3cccc(NC(=O)c4cncc(C)c4)c3)n2)cc1OC,item: rno-miR-136-5p,"rat SU5416/hypoxia model, lung","dose not given, unit not given",relative to: SU5416/hypoxia vehicle,delta delta Ct,-1.32
Cc1ccc(C(=O)Nc2ccnc(S(N)(=O)=O)c2)c(N2CCCC(F)(F)CC2)n1,,rhesus macaque,"intravenous, 0.4 mg/kg",relative to: vehicle,capsaicin flare,decreased
CCO,,supine,"concentration not given, 0 to 4 h",relative to: baseline,maximal mean SBP decrease,10.6 mmHg

# A few entries again:
Structure (SMILES),test,system,conditions,scale,endpoint,value
N#Cc1ccc(Oc2ccc3c(c2)COB3O)cc1,,"Balb/c mice, oxazolone atopic dermatitis","day 20, unit not given",relative to: vehicle,ear thickness difference,-0.25
NC(=O)c1cnc2[nH]ccc2c1N[C@@H]1[C@@H]2CC3C[C@H]1C[C@@](O)(C3)C2,"flow cytometry, item: CD8+ memory T cells","Japanese healthy subjects, peripheral blood","oral, 100 mg twice daily, day 7",,change from baseline,0.53%
N#Cc1ccc2c(-c3ccncc3)c(-c3ccc(F)cc3)nn2c1,"kinase binding, competitor, MIB/MS competition, item: KIN3",Candida albicans cell lysate,10 µM,relative to: DMSO,log2 fold change,0.446
